Measured values of several laboratories.
Protocols differ between the studies behind these lines. Numbers after ± are the reported error.
CYP2C9: Cytochrome P450 2C9 (CYP2C9, Homo sapiens, UniProt P11712)
CYP2C8: Cytochrome P450 2C8 (CYP2C8, Homo sapiens, UniProt P10632)
Chain of UniProt P10632 (whole entry, looked up): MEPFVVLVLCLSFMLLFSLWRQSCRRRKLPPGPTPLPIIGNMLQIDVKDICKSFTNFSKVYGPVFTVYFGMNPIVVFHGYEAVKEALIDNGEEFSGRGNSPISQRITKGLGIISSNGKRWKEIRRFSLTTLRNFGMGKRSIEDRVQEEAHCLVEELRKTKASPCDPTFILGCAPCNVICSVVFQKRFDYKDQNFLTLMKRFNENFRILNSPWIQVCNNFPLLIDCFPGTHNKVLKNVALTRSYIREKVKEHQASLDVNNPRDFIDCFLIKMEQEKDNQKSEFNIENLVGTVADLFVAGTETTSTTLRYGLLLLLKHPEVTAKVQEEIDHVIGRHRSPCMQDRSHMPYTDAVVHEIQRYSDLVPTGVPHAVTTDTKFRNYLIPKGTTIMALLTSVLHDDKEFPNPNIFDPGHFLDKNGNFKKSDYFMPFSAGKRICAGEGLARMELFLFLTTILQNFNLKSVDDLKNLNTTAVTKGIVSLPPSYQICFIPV
Chain of UniProt P0C1U8 (whole entry, looked up): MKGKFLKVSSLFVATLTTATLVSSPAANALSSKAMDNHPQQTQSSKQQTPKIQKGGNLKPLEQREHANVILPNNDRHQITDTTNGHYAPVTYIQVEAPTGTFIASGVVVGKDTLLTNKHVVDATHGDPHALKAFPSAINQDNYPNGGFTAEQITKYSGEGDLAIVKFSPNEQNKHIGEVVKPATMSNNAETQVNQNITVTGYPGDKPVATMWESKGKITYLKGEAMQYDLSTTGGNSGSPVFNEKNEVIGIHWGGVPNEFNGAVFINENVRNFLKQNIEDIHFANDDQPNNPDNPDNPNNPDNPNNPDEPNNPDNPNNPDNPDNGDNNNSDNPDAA
Chain of UniProt Q06520 (whole entry, looked up): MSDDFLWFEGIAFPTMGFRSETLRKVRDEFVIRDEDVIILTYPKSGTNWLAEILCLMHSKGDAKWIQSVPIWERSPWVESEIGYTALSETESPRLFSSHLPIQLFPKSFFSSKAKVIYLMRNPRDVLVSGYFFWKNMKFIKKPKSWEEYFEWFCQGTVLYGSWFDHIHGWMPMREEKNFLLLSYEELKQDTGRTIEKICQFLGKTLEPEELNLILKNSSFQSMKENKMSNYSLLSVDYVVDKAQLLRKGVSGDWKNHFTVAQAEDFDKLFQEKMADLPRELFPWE
Chain of UniProt P61073 (whole entry, looked up): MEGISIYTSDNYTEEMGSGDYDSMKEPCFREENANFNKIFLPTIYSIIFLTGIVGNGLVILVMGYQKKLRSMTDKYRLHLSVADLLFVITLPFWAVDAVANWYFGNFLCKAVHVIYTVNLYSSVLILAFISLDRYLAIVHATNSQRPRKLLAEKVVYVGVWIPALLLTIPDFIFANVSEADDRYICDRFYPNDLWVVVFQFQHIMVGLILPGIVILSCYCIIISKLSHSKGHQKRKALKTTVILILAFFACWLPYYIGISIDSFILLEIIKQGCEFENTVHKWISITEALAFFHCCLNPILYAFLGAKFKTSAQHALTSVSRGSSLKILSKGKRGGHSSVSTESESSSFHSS
Chain of UniProt P09622 (whole entry, looked up): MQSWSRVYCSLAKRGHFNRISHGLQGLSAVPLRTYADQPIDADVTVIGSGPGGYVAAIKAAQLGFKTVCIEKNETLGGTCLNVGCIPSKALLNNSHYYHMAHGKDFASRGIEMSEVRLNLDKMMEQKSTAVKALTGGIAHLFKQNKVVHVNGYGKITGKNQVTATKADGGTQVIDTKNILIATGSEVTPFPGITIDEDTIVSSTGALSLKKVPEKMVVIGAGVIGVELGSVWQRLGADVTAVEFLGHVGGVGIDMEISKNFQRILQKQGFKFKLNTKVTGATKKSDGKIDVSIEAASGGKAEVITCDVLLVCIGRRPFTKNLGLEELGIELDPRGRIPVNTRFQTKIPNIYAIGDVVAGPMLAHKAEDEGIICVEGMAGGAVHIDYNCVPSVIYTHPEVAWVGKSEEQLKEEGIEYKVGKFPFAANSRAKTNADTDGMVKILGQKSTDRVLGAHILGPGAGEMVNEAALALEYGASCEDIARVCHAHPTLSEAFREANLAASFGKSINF
Chain of UniProt P08183 (whole entry, looked up): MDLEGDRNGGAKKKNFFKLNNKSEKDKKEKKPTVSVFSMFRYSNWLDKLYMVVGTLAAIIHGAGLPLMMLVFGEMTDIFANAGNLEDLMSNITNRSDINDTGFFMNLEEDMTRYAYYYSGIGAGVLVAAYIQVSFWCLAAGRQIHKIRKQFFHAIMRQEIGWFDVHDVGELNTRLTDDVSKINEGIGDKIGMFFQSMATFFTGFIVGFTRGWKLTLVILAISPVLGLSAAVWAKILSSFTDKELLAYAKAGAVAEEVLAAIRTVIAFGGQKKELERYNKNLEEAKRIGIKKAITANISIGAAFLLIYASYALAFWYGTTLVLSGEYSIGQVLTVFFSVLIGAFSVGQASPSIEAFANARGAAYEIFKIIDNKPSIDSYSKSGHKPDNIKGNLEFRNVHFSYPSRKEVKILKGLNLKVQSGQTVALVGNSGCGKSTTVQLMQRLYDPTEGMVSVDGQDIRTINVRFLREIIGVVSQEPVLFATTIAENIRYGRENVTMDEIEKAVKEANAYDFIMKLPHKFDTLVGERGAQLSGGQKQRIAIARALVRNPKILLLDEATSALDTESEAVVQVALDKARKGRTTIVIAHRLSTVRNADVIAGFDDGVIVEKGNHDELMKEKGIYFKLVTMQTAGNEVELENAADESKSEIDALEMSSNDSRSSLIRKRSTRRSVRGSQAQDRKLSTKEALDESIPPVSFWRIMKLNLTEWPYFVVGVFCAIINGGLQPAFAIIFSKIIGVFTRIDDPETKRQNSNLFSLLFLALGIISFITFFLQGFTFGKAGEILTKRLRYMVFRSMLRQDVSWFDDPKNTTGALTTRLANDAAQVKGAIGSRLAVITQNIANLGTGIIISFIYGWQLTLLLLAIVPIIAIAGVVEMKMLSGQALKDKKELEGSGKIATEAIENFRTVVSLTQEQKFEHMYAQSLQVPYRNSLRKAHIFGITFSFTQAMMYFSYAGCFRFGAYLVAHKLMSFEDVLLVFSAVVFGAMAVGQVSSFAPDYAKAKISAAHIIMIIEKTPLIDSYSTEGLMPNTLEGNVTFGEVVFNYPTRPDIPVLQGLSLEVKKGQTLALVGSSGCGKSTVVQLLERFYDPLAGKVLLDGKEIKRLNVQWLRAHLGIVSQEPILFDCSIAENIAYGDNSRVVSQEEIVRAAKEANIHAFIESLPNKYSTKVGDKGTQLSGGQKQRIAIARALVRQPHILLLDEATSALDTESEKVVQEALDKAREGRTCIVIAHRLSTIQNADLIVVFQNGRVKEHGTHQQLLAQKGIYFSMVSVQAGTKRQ
Chain of UniProt P08684 (whole entry, looked up): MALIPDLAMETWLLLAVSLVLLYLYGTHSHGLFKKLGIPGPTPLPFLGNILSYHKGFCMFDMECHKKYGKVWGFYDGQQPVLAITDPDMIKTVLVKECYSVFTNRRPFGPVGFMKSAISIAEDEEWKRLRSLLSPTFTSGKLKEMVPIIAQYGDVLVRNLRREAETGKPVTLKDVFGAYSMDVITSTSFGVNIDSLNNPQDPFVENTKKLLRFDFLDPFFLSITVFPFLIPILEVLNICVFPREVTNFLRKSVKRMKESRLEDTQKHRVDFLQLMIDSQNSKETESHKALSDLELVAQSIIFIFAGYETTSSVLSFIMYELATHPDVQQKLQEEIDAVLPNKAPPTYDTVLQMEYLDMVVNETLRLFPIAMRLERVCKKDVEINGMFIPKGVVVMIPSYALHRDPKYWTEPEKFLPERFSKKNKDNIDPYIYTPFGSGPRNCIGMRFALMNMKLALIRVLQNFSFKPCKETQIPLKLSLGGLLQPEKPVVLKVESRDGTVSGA
Chain of UniProt P27487 (whole entry, looked up): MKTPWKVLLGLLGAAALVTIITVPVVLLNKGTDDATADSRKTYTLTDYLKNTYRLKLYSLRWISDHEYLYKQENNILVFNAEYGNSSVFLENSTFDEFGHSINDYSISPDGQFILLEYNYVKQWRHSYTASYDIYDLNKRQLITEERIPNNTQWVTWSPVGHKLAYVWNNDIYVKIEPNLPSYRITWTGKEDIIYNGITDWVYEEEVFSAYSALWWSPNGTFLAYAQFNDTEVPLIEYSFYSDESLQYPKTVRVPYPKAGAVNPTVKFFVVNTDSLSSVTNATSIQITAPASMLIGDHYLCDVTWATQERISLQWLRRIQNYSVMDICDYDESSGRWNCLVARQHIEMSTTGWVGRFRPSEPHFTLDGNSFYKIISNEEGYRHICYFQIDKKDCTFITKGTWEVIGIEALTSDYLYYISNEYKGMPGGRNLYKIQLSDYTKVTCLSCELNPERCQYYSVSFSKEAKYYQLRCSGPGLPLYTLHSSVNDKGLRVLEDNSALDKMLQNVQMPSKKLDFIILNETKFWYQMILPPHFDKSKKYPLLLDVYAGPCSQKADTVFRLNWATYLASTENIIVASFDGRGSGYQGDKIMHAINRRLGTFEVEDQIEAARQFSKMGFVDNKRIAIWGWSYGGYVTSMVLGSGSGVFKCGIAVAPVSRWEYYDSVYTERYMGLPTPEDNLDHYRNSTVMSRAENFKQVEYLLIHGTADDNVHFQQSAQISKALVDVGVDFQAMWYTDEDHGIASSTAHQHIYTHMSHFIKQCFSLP

| Structure (SMILES) | target | test | system | conditions | scale | measurement | result |
| --- | --- | --- | --- | --- | --- | --- | --- |
| Cc1cn2c(C(=O)NCc3ccc(C(F)(F)F)cc3)c(C)nc2s1 | CYP2C9 | inhibitor |  |  |  | IC50 | 19.2 µM |
| CCN(CC)CCOc1ccc(-c2nnn(Cc3ccc(OC)cc3)c2N)cc1 | CYP2C9 | enzyme activity, inhibitor |  | concentration not given |  | inhibition | no inhibition |
| CCCS(=O)(=O)c1ccc2[nH]c(NC(=O)OC)nc2c1 | CYP2C9 | inhibitor | human liver microsomes | 10 µM, pH 7.4, together with: diclofenac |  | inhibition | 11.9% |
| C[C@]12CC[C@H](O)CC1CCC1C2[C@H](O)C(=O)[C@]2(C)[C@@H](c3ccc(=O)oc3)CC[C@]12O (stereo partly shown) | SULT2A1 (Homo sapiens, UniProt Q06520) | substrate | recombinant human enzyme | 100 µM, 60 min, pH 7.4 |  | sulfation rate | 1.09 nmol/min/mg enzyme |
| O=C1Cc2cc(CCN3CCN(C4=NS(=O)(=O)c5ccccc54)CC3)c(Cl)cc2N1 | CYP2C9 | inhibitor | human liver microsomes | 10 µM, pH 7.4, together with: diclofenac |  | inhibition | 15.7% |
| Cc1ccc2nc(C)c(C(=O)NCc3ccc(C(F)(F)F)cc3)n2c1 | CYP2C9 | inhibitor |  |  |  | IC50 | 14.7 µM |
| CN1C(=O)[C@@H](Cc2ccc(O)cc2)NC(=O)CNC(=O)[C@H](Cc2ccc3ccccc3c2)NC(=O)[C@H](CCCNC(=N)N)NC(=O)[C@H]1CCCNC(=O)c1ccc(CNC(=O)CN2CCN(CC(=O)O)CCN(CC(=O)O)CCN(CC(=O)O)CC2)cc1 [gallium-68 labelled] | CXCR4 (Homo sapiens, UniProt P61073) | PET | human, lymphoma lesion |  |  | SUVmean | 9.91 |
| Cc1ccc(C[C@H](NC(=O)CN)C(=O)N[C@@H](CCCCN)C(=O)N[C@@H](CCCNC(=N)N)C(=O)N[C@H](CC(C)C)C(=O)N[C@H](C(=O)N[C@@H](CCC(N)=O)C(=O)N[C@@H](CCCNC(=N)N)C(=O)N[C@H](CC(C)C)C(=O)N[C@@H](CCCCN)C(=O)N[C@@H](CC(=O)O)C(=O)N[C@@H](Cc2c[nH]c3ccccc23)C(=O)N[C@H](CC(C)C)C(=O)N[C@@H](CCCNC(=N)N)C(=O)N[C@@H](CCCCN)C(=O)N[C@@H](CC(C)C)C(=O)N[C@H](C(N)=O)C(C)C)C(C)C)cc1 | sspA (Staphylococcus aureus, UniProt P0C1U8) | substrate, SDS-PAGE |  | 24 h, pH 7.4, 37 °C |  | proteolytic stability | stable |
| CC(=O)N1CCC[C@H]1C(=O)N[C@@H](CC(C)C)C(=O)N[C@@H](Cc1c[nH]cn1)C(=O)N[C@@H](CO)C(=O)N[C@H](C(N)=O)[C@@H](C)CP(=O)(OCOC(=O)C(C)(C)C)OCOC(=O)C(C)(C)C | pig liver esterase | substrate |  | 200 µM, 8 h, pH 7.4, 37 °C |  | conversion to free peptide | 20% |
| CC(C)C[C@H](NC(=O)[C@H](C)N)C(=O)N[C@@H](Cc1ccc(O)cc1)C(=O)N[C@@H](CCCCN)C(=O)N[C@@H](CCCCN)C(=O)N[C@@H](CC(C)C)C(=O)N[C@@H](CC(C)C)C(=O)N[C@@H](CCCCN)C(=O)N[C@@H](CCCCN)C(=O)N[C@@H](CC(C)C)C(=O)N[C@@H](CC(C)C)C(=O)N[C@@H](CCCCN)C(=O)N[C@@H](CO)C(=O)N[C@@H](C)C(=O)N[C@@H](CCCCN)C(=O)N[C@@H](CCCCN)C(=O)N[C@@H](CC(C)C)C(=O)NCC(=O)O | Escherichia coli OmpT | substrate | E. coli BL21 expressing ompT, PBS | 2 µg/µL, room temperature |  | time to cleavage | ≤ 2 min |
| C=CC(=O)Nc1cc(Nc2nccc(-c3cn(C)c4ccccc34)n2)c(OCC(F)(F)F)nc1N(C)CCN(C)C | Cytochrome P450 3A4 (CYP3A4, Homo sapiens, UniProt P08684) | enzyme activity, inhibitor | human, liver microsomes | 3.33 µM, midazolam probe |  | activity vs control | 78.4% |
| CC(C)(O)c1ccccc1CC[C@H](c1cccc(/C=C/c2ccc3ccc(Cl)cc3n2)c1)S(=O)(=O)CC1(CC(=O)O)CC1 | CYP2C8 |  | human liver microsomes | 2 µM, pH 7.4, together with: paclitaxel |  | inhibition | 94.6% |
| C=CCc1ccc(O)c(-c2cc(CC=C)cc(O)c2O)c1 | ABCB1 (Homo sapiens, UniProt P08183) | rhodamine 123 efflux |  | 10 µM | baseline: GF120918 0.5 µM | inhibition | -0.3 ± 2% |
| CNC(=O)Oc1cc(C)c([S+](C)[O-])c(C)c1 (stereo not shown) | CYP2C8 |  | human liver microsomes | 10 µM, pH 7.4, together with: paclitaxel |  | inhibition | < 0% |
| CC[C@H](C)[C@H](NC(=O)[C@H](Cc1ccccc1)NC(=O)[C@H](CCC(=O)O)NC(=O)[C@H](CCCCN)NC(=O)[C@H](C)NC(=O)[C@H](C)NC(=O)[C@H](CCC(N)=O)NC(=O)CNC(=O)[C@H](CCC(=O)O)NC(=O)[C@H](CC(C)C)NC(=O)[C@H](Cc1ccc(O)cc1)NC(=O)[C@H](CO)NC(=O)[C@H](CO)NC(=O)[C@@H](NC(=O)[C@H](CC(=O)O)NC(=O)[C@H](CO)NC(=O)[C@@H](NC(=O)[C@H](Cc1ccccc1)NC(=O)[C@@H](NC(=O)CNC(=O)N(CCC(=O)O)NC(=O)[C@H](C)NC(=O)N(N)Cc1c[nH]cn1)[C@@H](C)O)[C@@H](C)O)C(C)C)C(=O)N[C@@H](C)C(=O)N[C@@H](Cc1c[nH]c2ccccc12)C(=O)N[C@@H](CC(C)C)C(=O)N[C@H](C(=O)N[C@@H](CCCNC(=N)N)C(=O)NCC(=O)N[C@@H](CCCNC(=N)N)C(=O)NCC(=O)O)C(C)C | DPP4 (Homo sapiens, UniProt P27487) | proteolytic stability, substrate, HPLC-UV |  | up to 24 h, pH 7.4, 37 °C, together with: recombinant enzyme 16 nmol/l |  | half-life | > 1440 min |
| CC(C)(O)c1ccccc1CC[C@H](c1cccc(/C=C/c2ccc3ccc(Cl)cc3n2)c1)[S+]([O-])CC1(CC(=O)O)CC1 (stereo partly shown) | CYP2C8 |  | human liver microsomes | 2 µM, pH 7.4, together with: paclitaxel |  | inhibition | 93.7% |
| [64Cu+2].c1ccc(CNCc2ccc(CN3CCCNCCNCCCNCC3)cc2)nc1 | CXCR4 |  | NOD/SCID mouse, U87 and U87-stb-CXCR4 xenografts, lungs | iv, 90 min, no blocking dose, ex vivo |  | tissue uptake | 3.04 ± 0.17 %ID/g |
| CNC(=O)Oc1cc(C)c(S(C)(=O)=O)c(C)c1 | CYP2C9 | inhibitor | human liver microsomes | 2 µM, pH 7.4, together with: diclofenac |  | inhibition | < 0% |
| Cc1cc(S(=O)(=O)N(C)CC(=O)Nc2ccn(C)c(=O)c2)c2[nH]ncc2c1 | DLD (Homo sapiens, UniProt P09622) | binding, SPR |  |  |  | dissociation half-life | 2 min |

Excerpt of the above:
| Structure (SMILES) | target | test | system | conditions | scale | measurement | result |
| --- | --- | --- | --- | --- | --- | --- | --- |
| C=CC(=O)Nc1cc(Nc2nccc(-c3cn(C)c4ccccc34)n2)c(OCC(F)(F)F)nc1N(C)CCN(C)C | Cytochrome P450 3A4 (CYP3A4, Homo sapiens, UniProt P08684) | enzyme activity, inhibitor | human, liver microsomes | 3.33 µM, midazolam probe |  | activity vs control | 78.4% |
| [64Cu+2].c1ccc(CNCc2ccc(CN3CCCNCCNCCCNCC3)cc2)nc1 | CXCR4 |  | NOD/SCID mouse, U87 and U87-stb-CXCR4 xenografts, lungs | iv, 90 min, no blocking dose, ex vivo |  | tissue uptake | 3.04 ± 0.17 %ID/g |
| CC(C)(O)c1ccccc1CC[C@H](c1cccc(/C=C/c2ccc3ccc(Cl)cc3n2)c1)S(=O)(=O)CC1(CC(=O)O)CC1 | CYP2C8 |  | human liver microsomes | 2 µM, pH 7.4, together with: paclitaxel |  | inhibition | 94.6% |
